Results gathered from unrelated publications.
Every numbered part comes from another study and shows a few of its results, in no order.

Block 1
Target: RNA binding protein fox-1 homolog 2, RRM domain, GST-SBP tag (RBFOX2, Homo sapiens, UniProt O43251-10, residues 100-194)
Technique: RNA Bind-n-Seq
Molecule type: RNA
Medium: in vitro
Tested at: 365 nM
Notes: natural RNA segment, single round, ends assumed
Reference: no-protein control
Direction: higher = stronger binding
Shared flanks, not repeated: GGGAGUUCUACAGUCCGACGAUC … UGGAAUUCUCGGGUGCCAA
Under “RBNS enrichment (R)”, `UUUGUUUUAACUGUGGAUUUAUUGAUUGCUAACCUCUACAGAUAUGAUGAUAGGGCAAGCAUUCUUCUAAUCGAUUUUAAUUGUCCUUUGUGUGAAAAACAAAACAAAAC` is recorded as 0.785.
For `UAAUCAGAUGCCAUUUUAUAUGUGGACGUAUUUAUACUGGCCAAACAGUUUUCUUAUUUUGUCCCCCCUUUUUUUCCCUUUUCAUUUGCUUUCUUGUCUUUUAACCUCGU`, “RBNS enrichment (R)” read 1.2.
For `GAAAGGAGGGGAGAAAGCGGGCUCUCACCCCCUCAGGAGUGGGCACGGGAGCCCUUCUCCCUGACCCUGGGCUGCUUCCUGGGGGCUCUCCAGACCCCUCUCUAGGACCA`, “RBNS enrichment (R)” read 0.474.
`UAAGUGGAGUAUUUUAGUCUAAAGGCUUUUCAAAUUACUUGAAUUUUUUUAAAAAUUGAGGAGCUUUAUUUCUAUUUACCCUUCCAUUUUUGUAUAUCAAAUUUCCAUUG`: “RBNS enrichment (R)” 0.666.
`CUAUUUACUGUUUACAGCUGGCCAGUGCAGAGCUGCUGCUCUUUUACCUUUUUAGGCCCCUGUAACUUCCCACCUUUAAACUGCCCAGAAGGCAUGCCUCUCCCACAGGA`: “RBNS enrichment (R)” 1.05.
`UAGACCAUAGCUGCAGGUUAACCAAUUAGUUACUAUCGUAGAGUAAUAUAUAUUCAGAAUAAUAAACUCAAGCUGGAGAAAUGAGUCCUGAUAGACUGAAAAUUGAGCAA` — result for “RBNS enrichment (R)”: 0.455.
`GCCGGGACAGCUUUCCUCUCAGUCAUUGUUCACCCCACUUGAAAAUUCAGACAAGAAAACUUUGCUUAAAAGAUUUCAUGUGUGGGAACCACAGUUCCUGGCUGCCUUUC` — result for “RBNS enrichment (R)”: 0.407.
`ACUGUGUCUUUUUUCAUCUUUGUAUCUUUCAUGCACCUAGCAUAGUGCUUUGCACAUAGUAGUCACUCAGUGUUUGUUAAAUAAAGCUAUUAGUGUCAUUAAAAUUCAAA`: “RBNS enrichment (R)” 0.905.

Block 2
Target: Histone acetyltransferase KAT6A, both winged helices, GST fusion (KAT6A, Homo sapiens, UniProt Q92794, residues 1-181)
Technique: protein binding microarray
Molecule type: double-stranded DNA, one strand shown
Medium: in vitro
Tested at: not given
Notes: 8-mer, flanks averaged, mean of 2 arrays, mostly near background
Reference: not given
Direction: higher = stronger binding
Construct (chain): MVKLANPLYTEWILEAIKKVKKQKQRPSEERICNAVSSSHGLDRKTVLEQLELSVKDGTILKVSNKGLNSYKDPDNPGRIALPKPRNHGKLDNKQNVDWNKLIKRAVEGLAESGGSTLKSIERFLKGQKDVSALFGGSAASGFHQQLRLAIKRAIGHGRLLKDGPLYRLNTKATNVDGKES
With `CATAAACG` the E-score was 0.104.
`GTGTCCGA` has an E-score of 0.113.
With `GTGGGCAA` the E-score was -0.109.
`CCCCTAAG` gave an E-score of -0.253.
`AGTGAACT` has an E-score of -0.0964.
The E-score of `CTGGTGCA` is reported as -0.172.
For `GTATTATA`, the E-score was 0.00128.
The E-score of `GGCAGACA` is reported as 0.043.
With `CGACGAGC` the E-score was 0.00574.
`CCAGATCG` gave an E-score of 0.039.
The E-score of `AGTTTCTG` is reported as -0.103.
The E-score of `CACTCCGC` is reported as 0.132.
The E-score of `CCGGCCCA` is reported as -0.0457.
`CGTTTGTA` has an E-score of 0.0219.
`GTGCTTTA` has an E-score of -0.108.
For `CTGTCGTA`, the E-score was -0.0587.

Block 3
Target: RING finger protein unkempt homolog, zinc fingers 1-6, GST-SBP tag (UNK, Homo sapiens, UniProt Q9C0B0, residues 30-357)
UniProt Q9C0B0, sequence (30-357, looked up): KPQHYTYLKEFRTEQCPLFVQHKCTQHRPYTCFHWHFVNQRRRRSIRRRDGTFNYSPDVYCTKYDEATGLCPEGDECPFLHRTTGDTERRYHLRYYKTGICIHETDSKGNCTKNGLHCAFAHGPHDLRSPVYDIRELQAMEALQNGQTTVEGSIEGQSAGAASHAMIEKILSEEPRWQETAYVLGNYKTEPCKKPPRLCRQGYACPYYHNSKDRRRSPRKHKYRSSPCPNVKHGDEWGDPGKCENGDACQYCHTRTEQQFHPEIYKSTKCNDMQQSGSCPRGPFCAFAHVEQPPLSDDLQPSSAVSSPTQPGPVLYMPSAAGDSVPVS
Technique: RNA Bind-n-Seq
Molecule type: RNA
Medium: in vitro
Tested at: not given
Notes: RNA with constant flanks, ends assumed
Reference: input RNA pool
Direction: higher = stronger binding
Shared flanks, not repeated: GGGAGUUCUACAGUCCGACGAUC … CAACAGAGGAUUGAGCAUCA
`GUGUUGAACUUCACAGCCUUGCUCAUUGAGUACAGCUUUUCCCGGCAUCUGUACAGUUCCACCGAGCAUUUGACAACUUUAUUGGCUUCCUCUGAUAUGCAAGUGGUGCUGGCAGUCCUC` has a bound/input enrichment of 0.202 ratio.
With `UGUGGCUGCUUUCUUUGGUGCCCUCCCCUCACCCCACUGUAGCUGUGACGUGUUGCCGUUUUCCGAUGUUUGUAAAAUGUUUAAAAAAAUGUUAAAAGGAAAAAAGUGAAAAUAACAAAA` the bound/input enrichment was 0.508 ratio.
`GAACCUGAGCCAGCGGAAGAAUACACAGAGCAAAGUGAGGUUGAAUCAACAGAGUAUGUCAACCGGCAGUUCAUGGCAGAAACACAGUUCAGCAGUGGUGAGAAGGAGCAAGUGGAUGAG` gave a bound/input enrichment of 0.236 ratio.
The bound/input enrichment of `AGAUAAACUGUCCAUUCUUUCAUUUGGAAGCUAAUUAUGUAGACCAUUUAAAUGGAUAUUACCGAUGACAACUUAAUACAAUGUUUUCUCUAGGCCUAAAGAUGUCGGAAGACCCAAGGC` is reported as 0.389 ratio.
The bound/input enrichment of `CUUAGUCCUGAUGCUGUCUAUGUACUGUGCUACUCUUUGAUUCUACUUUCCAUUGACCUCACCCGCCCUCAUGUGAAGAAUAAAAUGUCAAAAAGGGAAUUUAUUCGAAAUACCCGUCGC` is reported as 0.355 ratio.
With `ACCCUCAUCAACAUCCCAGCCCUAAACGACAGCGACUCUGAAGUGGAGGAUAUCUCGGAAACCGAGUCCAACCGGUCUUUCUCUCCAGAGGAGAGACGCCAGCAGUAUUCUGAUCAGGAU` the bound/input enrichment was 0.143 ratio.
The bound/input enrichment of `AAUAUGAGGGCCAGGCAGCAGGCCAAGCGAGAAGCUUGCAGUGAUGCCAUGUCUGGAGCUACCGAUACAAAUAAGAAAGAGUCCUGGUUCUUGCCUGAAGAGAAAGCUAAUGUUUUUUCA` is reported as 0.131 ratio.
For `GUUCGGGGUAUUUUGUUGGGUGCUUUAGGAGGAGAGAAGAGGAGGACCUUGUCCUCAUCCCCGCCGUUUGGCUGGACUUGUACUGGCCGUUGGAAACCCCCAAGUACAUUUCCGUGUGGA`, the bound/input enrichment was 0.362 ratio.

Block 4
Target: Sal-like protein 4, full length isoform B (SALL4, Homo sapiens, UniProt Q9UJQ4-2, residues 1-616)
Technique: universal PBM
Molecule type: double-stranded DNA, one strand shown
Medium: in vitro
Tested at: not given
Notes: 8-mer, flanks averaged, mean of replicates
Direction: higher = stronger binding
Construct (chain): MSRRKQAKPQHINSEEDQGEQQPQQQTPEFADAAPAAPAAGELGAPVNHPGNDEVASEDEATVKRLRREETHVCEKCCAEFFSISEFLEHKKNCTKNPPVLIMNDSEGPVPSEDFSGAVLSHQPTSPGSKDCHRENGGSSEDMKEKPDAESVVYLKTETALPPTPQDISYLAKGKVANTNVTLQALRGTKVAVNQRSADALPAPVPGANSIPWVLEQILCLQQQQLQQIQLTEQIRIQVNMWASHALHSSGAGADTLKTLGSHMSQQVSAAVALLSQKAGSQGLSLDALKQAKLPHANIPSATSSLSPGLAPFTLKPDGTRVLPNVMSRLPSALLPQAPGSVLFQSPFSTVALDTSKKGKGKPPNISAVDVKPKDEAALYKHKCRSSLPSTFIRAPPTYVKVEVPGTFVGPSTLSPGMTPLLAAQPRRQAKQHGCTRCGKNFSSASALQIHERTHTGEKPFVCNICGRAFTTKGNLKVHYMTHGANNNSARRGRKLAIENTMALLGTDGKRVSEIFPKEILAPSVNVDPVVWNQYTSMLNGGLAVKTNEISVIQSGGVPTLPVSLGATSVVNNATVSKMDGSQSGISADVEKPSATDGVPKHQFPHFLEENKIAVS
`CGTTCCGC` gave an E-score of -0.246.
The E-score of `GCCTTGAC` is reported as -0.0909.
For `AACTCATA`, the E-score was 0.258.
The E-score of `CCTAGGAG` is reported as -0.112.
The E-score of `TATTGGCA` is reported as 0.129.
For `ACGCCCAG`, the E-score was -0.234.
`CGGATGAC` gave an E-score of -0.244.
`AACCCATG` has an E-score of -0.11.
With `GCGGATAA` the E-score was -0.139.
`CCACTGGA` gave an E-score of -0.246.
`ATTAGACC` has an E-score of 0.02.
`CTGCCGAA` has an E-score of -0.107.
The E-score of `ACACGCAG` is reported as -0.128.
`CCATGACG` gave an E-score of -0.133.
For `CCTACGAC`, the E-score was -0.0409.
`AATCGCCC` gave an E-score of -0.158.
With `ATCCTAAT` the E-score was 0.173.

Some of these lines once more (block 2):
With `CATAAACG` the E-score was 0.104.
With `CGACGAGC` the E-score was 0.00574.
For `CTGTCGTA`, the E-score was -0.0587.
The E-score of `AGTTTCTG` is reported as -0.103.
`AGTGAACT` has an E-score of -0.0964.
